Experimental data pooled from the literature.
Parts stem from different laboratories: compare values within a part only. Positions count from the first letter of the parent shown.

Study 1
Target: CCNF, cyclin fold, Cln2 fusion (human)
Method: yeast growth competition, sequencing
Medium: yeast
Setting: weak parent motif
Reference: not given
Reading: higher = stronger binding
Starting sequence: PKN2 docking peptide (human); DSTVTKLDFDLEP
Change	normalised enrichment score
DSTVTKLDFALEP [D10A]	-0.318
DSTVTKLDFDAEP [L11A]	-0.0585
DSTVTALDFDLEP [K6A]	-0.401
DSTVAKLDFDLEP [T5A]	-0.242
DSTATKLDFDLEP [V4A]	0.428
DSAVTKLDFDLEP [T3A]	0.616
DSTVTKLDFDLEA [P13A]	0.202

Study 2
Target: Sal-like protein 4, full length isoform A (SALL4, Homo sapiens, UniProt Q9UJQ4, residues 1-1053)
Sequence of UniProt Q9UJQ4 (whole entry, looked up): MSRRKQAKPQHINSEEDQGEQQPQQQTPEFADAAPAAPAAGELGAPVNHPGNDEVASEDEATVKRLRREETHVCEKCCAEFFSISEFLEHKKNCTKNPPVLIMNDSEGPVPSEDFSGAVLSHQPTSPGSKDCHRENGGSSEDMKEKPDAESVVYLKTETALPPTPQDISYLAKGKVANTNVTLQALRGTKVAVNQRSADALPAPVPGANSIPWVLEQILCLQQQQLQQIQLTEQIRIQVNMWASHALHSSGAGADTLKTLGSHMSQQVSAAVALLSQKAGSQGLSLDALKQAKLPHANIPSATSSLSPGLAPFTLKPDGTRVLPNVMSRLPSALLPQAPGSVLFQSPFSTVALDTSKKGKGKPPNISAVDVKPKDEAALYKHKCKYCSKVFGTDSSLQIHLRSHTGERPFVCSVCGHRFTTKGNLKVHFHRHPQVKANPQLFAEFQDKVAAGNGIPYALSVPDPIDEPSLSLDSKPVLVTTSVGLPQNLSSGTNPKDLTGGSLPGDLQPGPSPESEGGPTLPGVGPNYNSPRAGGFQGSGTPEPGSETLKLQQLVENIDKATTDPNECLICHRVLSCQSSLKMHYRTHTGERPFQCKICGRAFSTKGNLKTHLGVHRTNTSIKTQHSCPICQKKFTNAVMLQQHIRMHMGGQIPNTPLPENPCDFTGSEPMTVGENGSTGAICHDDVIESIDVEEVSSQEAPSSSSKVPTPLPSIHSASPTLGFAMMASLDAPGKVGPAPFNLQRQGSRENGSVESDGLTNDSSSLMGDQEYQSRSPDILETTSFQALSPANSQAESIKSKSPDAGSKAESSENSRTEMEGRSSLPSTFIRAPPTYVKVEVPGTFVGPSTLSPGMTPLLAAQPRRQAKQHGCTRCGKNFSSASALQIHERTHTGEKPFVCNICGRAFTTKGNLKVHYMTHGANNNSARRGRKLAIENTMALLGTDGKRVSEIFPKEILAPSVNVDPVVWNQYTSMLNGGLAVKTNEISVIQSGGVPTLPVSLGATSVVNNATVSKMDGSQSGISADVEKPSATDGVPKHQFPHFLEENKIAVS
Method: universal PBM
Molecule type: double-stranded DNA, one strand shown
Medium: in vitro
Tested at: 600 nM
Setting: 8-mer, flanks averaged, mean of replicates
Reading: higher = stronger binding
Sequence	E-score
CGTAGGAA	-0.0727
CGAAGCGA	-0.248
ATAGAACG	0.217
CACGACGG	-0.144
AAGTCGAT	0.0816
AAGACCCA	-0.246
TAAATTCA	0.285
GCGAGACA	-0.309
ACGCGCCC	-0.273
TCTACGCA	0.084
CGCGAGAC	-0.114
AAAGCTCA	-0.00179
AAAAATGA	0.393
CAACATAG	0.138
CAGTGGCC	-0.306
CATCGTCG	-0.166
CTTAGGGC	-0.0936
GAGTACCA	0.038
GATGTTGC	0.0173
CCAAAGGG	-0.205
CATCAGAA	0.191
AGCAGCGG	-0.407
GTGGAGAA	-0.0209
ATGGGCAA	0.038
ATTCATTC	0.267

Study 3
Target: ABI1, truncated, D143A, DHFR fusion (Arabidopsis thaliana)
Method: DHFR PCA, deep sequencing
Medium: yeast
Setting: methotrexate growth selection, single substitutions
With: (+)-ABA 4.8 µM
Reference: wild-type fitted maximum
Reading: higher = stronger binding
Starting sequence: PYL1, truncated, DHFR fusion (Arabidopsis thaliana); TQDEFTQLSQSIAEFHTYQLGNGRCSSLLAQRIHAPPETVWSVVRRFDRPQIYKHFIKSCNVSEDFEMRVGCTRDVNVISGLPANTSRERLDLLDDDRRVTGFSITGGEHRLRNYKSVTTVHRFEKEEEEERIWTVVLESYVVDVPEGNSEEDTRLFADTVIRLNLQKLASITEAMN
Change	relative binding score [%]
T119S	0.276
E125V	82.6
A175M	71.7
S9T	68.4
K54S	-2.67
E89C	0.0357
F157Q	-2.98
I33M	45.5
D97C	54.3
R155W	-4.23
L93H	40.7
Y53A	-9.86
S140Y	9.6
F103A	-7.92
V121S	1.29
S27Q	38
T17V	31.5
C72P	-6.84
A175H	69.5
K58V	18.3
Q167S	77.9
S9F	43.3

Mixed results
Substance	target	assay	test system	setting	scale	measurement	result
PhoQ, residues 284 288 289 292 302 303 QWGLFV	PhoP, residues 12 14 15 18 19 NQGLL (Escherichia coli, UniProt P23836)	Sort-seq, measured: YFP reporter	E. coli	PhoQ-PhoP variant library, with: 10 µM Mg2+	reference: high Mg2+ state, higher = stronger signaling	fold induction	2.21

Some of these lines once more (mixed results):
Substance	target	assay	test system	setting	scale	measurement	result
PhoQ, residues 284 288 289 292 302 303 QWGLFV	PhoP, residues 12 14 15 18 19 NQGLL (Escherichia coli, UniProt P23836)	Sort-seq, measured: YFP reporter	E. coli	PhoQ-PhoP variant library, with: 10 µM Mg2+	reference: high Mg2+ state, higher = stronger signaling	fold induction	2.21
